# Measured values of several laboratories.
# Protocols differ between the studies behind these lines. ± marks the error that the study gave.
SMILES,target or system,assay,system,setting,scale,endpoint,value
C=Cc1c(C)c2cc3nc(c(CC(=O)O)c4[nH]c(cc5nc(cc1[nH]2)C(C)=C5CC)c(C)c4C(=O)O)[C@@H](CCC(=O)NCCCC[C@H](NC(C)=O)C(=O)N[C@@H](Cc1ccccc1)C(=O)N[C@@H](Cc1ccccc1)C(=O)N[C@H](C(=O)N[C@@H](CC(C)C)C(=O)N[C@@H](CCCCN)C(=O)N[C@@H](CO)C(=O)NCC(=O)N[C@@H](CCC(N)=O)C(=O)N[C@@H](Cc1ccc(O)cc1)C(=O)N[C@@H](C)C(=O)N[C@@H](CO)C(=O)N[C@@H](Cc1ccc(O)cc1)C(=O)N[C@@H](Cc1c[nH]cn1)C(=O)N[C@@H](CS)C(=O)N[C@@H](Cc1c[nH]c2ccccc12)C(=O)N[C@@H](CS)C(=O)N[C@@H](Cc1c[nH]c2ccccc12)C(=O)N[C@@H](CCCNC(=N)N)C(=O)N[C@@H](CC(=O)O)C(=O)N1CCC[C@H]1C(=O)NCC(=O)N[C@@H](CCCNC(=N)N)C(=O)N[C@@H](CO)C(=O)NCC(=O)NCC(=O)N[C@@H](CO)C(=O)N[C@@H](CCCCN)C(N)=O)C(C)C)[C@@H]3C,,,"mouse, blood",6 h,,blood concentration,99.2 µg/mL
COc1ccccc1-c1n[nH]c2nc(NC3CCN(C(=O)Cc4ccc(F)cc4F)CC3)ncc12,,"bead binding, competition bead pull-down, item: LINJ.34.3890",Leishmania donovani axenic amastigote extract,10 µM,relative to: vehicle,relative abundance,0.85
CC(=O)NCCCC[C@@H]1NC(=O)[C@H](Cc2c[nH]c3c(C)cccc23)NC(=O)[C@H]([C@@H](C)O)NC(=O)[C@H](CC(N)=O)NC(=O)[C@@H](NC(C)=O)C(C)(C)SSC(C)(C)[C@@H](C(=O)N[C@@H](Cc2ccc(OCCN)cc2)C(=O)N[C@@H](Cc2ccc3ccccc3c2)C(=O)NC2(C(=O)N[C@@H](CCC(=O)O)C(=O)N[C@@H](CC(N)=O)C(=O)N[C@@H](Cc3cccnc3)C(=O)N(C)CC(N)=O)CCOCC2)NC1=O,,,"rat, blood","0.0013 µM, 2 h",,blood to plasma ratio,0.63 ± 0.09
CCCC[C@H]1C(=O)N(C)[C@@H](CCCC)C(=O)N[C@@H](CCCNC(=O)CN2CCN(CC(=O)O)CCN(CC(=O)O)CCN(CC(=O)O)CC2)C(=O)N[C@H](C(=O)NCC(N)=O)CSCC(=O)N[C@@H](Cc2ccc(O)cc2)C(=O)N(C)[C@@H](C)C(=O)N[C@@H](CC(N)=O)C(=O)N2CCC[C@H]2C(=O)N[C@@H](Cc2c[nH]cn2)C(=O)N[C@@H](CC(C)C)C(=O)N(C)CC(=O)N[C@@H](Cc2c[nH]c3ccccc23)C(=O)N[C@@H](CO)C(=O)N[C@@H](Cc2c[nH]c3ccccc23)C(=O)N1C [gallium-68 labelled],,,"NOD/SCID mice with CHO-hPD-L1 xenograft, kidney",60 min post injection,,tissue uptake,40.8 ± 3.14 %ID/g
CC(C)[C@@H]1NC(=O)CNC(=O)[C@H](CC(N)=O)NC(=O)[C@H](CCCNC(=N)N)NC(=O)[C@H](Cc2ccc(O)cc2)NC(=O)[C@H](C(C)C)NC(=O)[C@@H](NC(=O)[C@@H](NC(=O)[C@H](CC(N)=O)NC(=O)[C@H](Cc2c[nH]c3ccccc23)NC(=O)[C@H](C)NC(=O)[C@H](Cc2ccccc2)NC(=O)CNC(=O)[C@H](CCCCN)NC(=O)[C@H](Cc2ccccc2)NC(=O)[C@H](Cc2ccccc2)NC(=O)[C@H](CCCCN)NC(=O)OCC2c3ccccc3-c3ccccc32)C(C)C)CSSC[C@@H](C(=O)N[C@@H](Cc2c[nH]cn2)C(=O)N[C@@H](CCCNC(=N)N)C(=O)N[C@@H](CCCNC(=N)N)C(=O)N[C@@H](C)C(=O)N[C@@H](CC(N)=O)C(N)=O)NC(=O)[C@H](C(C)C)NC(=O)[C@H](CCCNC(=N)N)NC1=O,,,ICR mouse,"ip, 10 mg/kg",direction not given,lachrymation score,0
N=C(N)NCCC[C@H](NC(=O)[C@H](CCCNC(=N)N)NC(=O)[C@H](CCCNC(=N)N)NC(=O)[C@H](CCC(N)=O)NC(=O)[C@H](CCCNC(=N)N)NC(=O)[C@H](CCCNC(=N)N)NC(=O)[C@H](CCCCN)NC(=O)[C@H](CCCCN)NC(=O)[C@H](CCCNC(=N)N)NC(=O)CNC(=O)[C@H](Cc1ccc(O)cc1)NC(=O)[C@H](Cc1ccccc1)NC(=O)[C@H](Cc1ccccc1)NC(=O)[C@H](Cc1ccccc1)NC(=O)Cc1ccc2ccccc2c1)C(=O)O,,,C57BL/6 mice,"intraperitoneal, 5 mg/kg, 6 h",direction not given,health score,5
CC[C@H](C)[C@H](NC(=O)[C@H](CCCN)NC(=O)[C@H](CCCNC(=N)N)NC(=O)[C@@H]1CCCN1C(=O)[C@@H]1CCCN1C(=O)[C@H](CCCNC(=N)N)NC(=O)[C@@H]1CCCN1C(=O)[C@H](CCCNC(=N)N)NC(=O)[C@@H]1CCCN1C(=O)[C@H](CC(C)C)NC(=O)[C@H](Cc1ccc(O)cc1)NC(=O)[C@@H]1CCCN1C(=O)[C@@H]1CCCN1C(=O)[C@H](CCCCN)NC(=O)[C@H](CC(=O)O)NC(=O)[C@@H](N)C(C)C)C(=O)N[C@@H](Cc1ccc(O)cc1)C(=O)N[C@@H](CC(N)=O)C(=O)N[C@@H](CCCN)C(N)=O,,competitive ELISA,"mouse CD-1, female, plasma","subcutaneous, 4.34 µmol/kg",,clearance,0.76 mL/min
O=C1NC2(CC2)COc2ncc(F)cc2[C@H]2COCCN2c2ccn3ncc1c3n2,,,"Sprague-Dawley rat, female, thymus","oral, 2.5 mg/kg/day, 4 weeks dosing, end of recovery",,organ-to-body weight ratio,0.134 ± 0.018%
CSCC[C@H](N)C(=O)N[C@@H](C)C(=O)N[C@@H](CCCNC(=N)N)C(=O)N[C@@H](CCCNC(=N)N)C(=O)N[C@@H](CC(=O)O)C(=O)N[C@@H](CCCCN)C(=O)N[C@H](C(=O)N[C@@H](CC(=O)O)C(=O)N[C@@H](Cc1ccccc1)C(=O)N[C@@H](C)C(=O)N[C@@H](CCCNC(=N)N)C(=O)N[C@@H](CCCNC(=N)N)C(=O)N[C@@H](CCCNC(=N)N)C(=O)N[C@@H](CCCNC(=N)N)C(=O)NCCCCCC(=O)NCCCCC(NC(=O)CCCCCNC(=O)[C@H](CCCNC(=N)N)NC(=O)[C@H](CCCNC(=N)N)NC(=O)[C@H](CCCNC(=N)N)NC(=O)[C@H](CCCNC(=N)N)NC(=O)[C@H](C)NC(=O)[C@H](Cc1ccccc1)NC(=O)[C@H](CC(=O)O)NC(=O)[C@@H](NC(=O)[C@H](CCCCN)NC(=O)[C@H](CC(=O)O)NC(=O)[C@H](CCCNC(=N)N)NC(=O)[C@H](CCCNC(=N)N)NC(=O)[C@H](C)NC(=O)[C@@H](N)CCSC)[C@@H](C)O)C(=O)NCCCCC(NC(=O)C(CCCCNC(=O)CCCCCNC(=O)[C@H](CCCNC(=N)N)NC(=O)[C@H](CCCNC(=N)N)NC(=O)[C@H](CCCNC(=N)N)NC(=O)[C@H](CCCNC(=N)N)NC(=O)[C@H](C)NC(=O)[C@H](Cc1ccccc1)NC(=O)[C@H](CC(=O)O)NC(=O)[C@@H](NC(=O)[C@H](CCCCN)NC(=O)[C@H](CC(=O)O)NC(=O)[C@H](CCCNC(=N)N)NC(=O)[C@H](CCCNC(=N)N)NC(=O)[C@H](C)NC(=O)[C@@H](N)CCSC)[C@@H](C)O)NC(=O)CCCCCNC(=O)[C@H](CCCNC(=N)N)NC(=O)[C@H](CCCNC(=N)N)NC(=O)[C@H](CCCNC(=N)N)NC(=O)[C@H](CCCNC(=N)N)NC(=O)[C@H](C)NC(=O)[C@H](Cc1ccccc1)NC(=O)[C@H](CC(=O)O)NC(=O)[C@@H](NC(=O)[C@H](CCCCN)NC(=O)[C@H](CC(=O)O)NC(=O)[C@H](CCCNC(=N)N)NC(=O)[C@H](CCCNC(=N)N)NC(=O)[C@H](C)NC(=O)[C@@H](N)CCSC)[C@@H](C)O)C(N)=O)[C@@H](C)O (stereo partly shown),,,"C57BL/6 mouse female, heart","dose not given, 6 h",relative to: total,mean tissue distribution,0.88%
C=C/C=C/C[C@@H](C)[C@@H](O)[C@H]1C(=O)N[C@@H](CC)C(=O)N(C)CC(=O)N(C)[C@@H](CC(C)C)C(=O)N[C@@H](C(C)C)C(=O)N(C)[C@@H](CC(C)C)C(=O)N[C@@H](C)C(=O)N[C@H](C)C(=O)N(C)[C@@H](CC(C)C)C(=O)N(C)[C@@H](CC(C)C)C(=O)N(C)[C@@H](C(C)C)C(=O)N1C,,calcium-selective electrode,"Wistar Kyoto rat, male, heparinized whole blood","ip, 0.5 mg/kg/day, day 28",,free Ca2+,1.2 ± 0.07 mmol/L
CS(=O)(=O)c1cc(Cl)cc(-c2cc(Cl)c(Cl)cc2Cl)c1Cl,,ultrafiltration,cow milk whey,100 nM nominal in whole milk,,final permeate concentration,1.44 nM
N=C(N)NCCC[C@@H](NC(=O)[C@H](N)Cc1c[nH]c2ccccc12)C(=O)N[C@H](CCCCN)C(=O)N[C@H](Cc1c[nH]c2ccccc12)C(=O)N[C@H](CCCNC(=N)N)C(=O)N[C@H](CCCCN)C(=O)N[C@H](Cc1c[nH]c2ccccc12)C(=O)N[C@H](CCCNC(=N)N)C(=O)N[C@H](CCCCN)C(=O)N[C@H](Cc1c[nH]c2ccccc12)C(=O)N[C@H](CCCNC(=N)N)C(=O)N[C@H](CCCCN)C(N)=O,,,"mouse, liver","intravenous, 20 mg/kg single dose, 7 days",,organ index,4.92
CC[C@H](C)[C@H](NC(=O)[C@H](CCCCN)NC(=O)CNC(=O)[C@H](CC(C)C)NC(=O)[C@H](Cc1ccccc1)NC(=O)[C@H](CCCCN)NC(=O)[C@H](CO)NC(=O)[C@H](Cc1ccccc1)NC(=O)[C@H](Cc1c[nH]c2ccccc12)NC(=O)[C@H](CCC(N)=O)NC(=O)[C@@H](NC(=O)[C@H](Cc1ccccc1)NC(=O)CCCCCNC(=O)CN1CCN(CC(=O)O)CCN(CC(=O)O)CCN(CC(=O)O)CC1)C(C)C)C(=O)N[C@@H](CCC(=O)O)C(=O)N1CCC[C@H]1C(=O)N[C@@H](CC(=O)O)C(=O)N[C@H](C(=O)N[C@@H](CO)C(=O)N[C@@H](CCC(N)=O)C(=O)N[C@H](C(=O)N[C@@H](CCC(N)=O)C(=O)N[C@@H](CC(=O)O)C(=O)N1CCC[C@H]1C(=O)N[C@@H](CC(N)=O)C(=O)N[C@@H](CC(=O)O)C(=O)N[C@@H](CCC(N)=O)C(=O)N[C@@H](Cc1ccc(O)cc1)C(=O)N[C@@H](CCC(=O)O)C(=O)N1CCC[C@H]1C(=O)N[C@@H](Cc1ccccc1)C(=O)O)C(C)C)C(C)C [copper-64 labelled],,,"C57BL/6 male mouse, tumour-naive, thymus",4 h,,tissue uptake,2.48 ± 0.5 %ID/g
CC(C)(C)C(=O)OCOP(=O)(OCOC(=O)C(C)(C)C)C1CCCN(O)C1=O (stereo not shown),NCI-H23,,,,,GI50,0.564 µM
CN1Cc2cc(Cl)ccc2-n2c(nnc2C2CCN(c3cccc([18F])n3)CC2)C1,,PET two-tissue compartment model,"rhesus monkey, male, striatum","intravenous, dose not given, 100 min scan, baseline scan",,total volume of distribution,1.11 ± 0.32 mL/cm3
CC(C)=CCC/C(C)=C\CCn1cc(CC(P(=O)(O)O)P(=O)(O)O)nn1,,equilibrium dialysis,mouse plasma,"10 µg/mL, 4 h",,fraction unbound,0.056

# A few entries again:
SMILES,target or system,assay,system,setting,scale,endpoint,value
CSCC[C@H](N)C(=O)N[C@@H](C)C(=O)N[C@@H](CCCNC(=N)N)C(=O)N[C@@H](CCCNC(=N)N)C(=O)N[C@@H](CC(=O)O)C(=O)N[C@@H](CCCCN)C(=O)N[C@H](C(=O)N[C@@H](CC(=O)O)C(=O)N[C@@H](Cc1ccccc1)C(=O)N[C@@H](C)C(=O)N[C@@H](CCCNC(=N)N)C(=O)N[C@@H](CCCNC(=N)N)C(=O)N[C@@H](CCCNC(=N)N)C(=O)N[C@@H](CCCNC(=N)N)C(=O)NCCCCCC(=O)NCCCCC(NC(=O)CCCCCNC(=O)[C@H](CCCNC(=N)N)NC(=O)[C@H](CCCNC(=N)N)NC(=O)[C@H](CCCNC(=N)N)NC(=O)[C@H](CCCNC(=N)N)NC(=O)[C@H](C)NC(=O)[C@H](Cc1ccccc1)NC(=O)[C@H](CC(=O)O)NC(=O)[C@@H](NC(=O)[C@H](CCCCN)NC(=O)[C@H](CC(=O)O)NC(=O)[C@H](CCCNC(=N)N)NC(=O)[C@H](CCCNC(=N)N)NC(=O)[C@H](C)NC(=O)[C@@H](N)CCSC)[C@@H](C)O)C(=O)NCCCCC(NC(=O)C(CCCCNC(=O)CCCCCNC(=O)[C@H](CCCNC(=N)N)NC(=O)[C@H](CCCNC(=N)N)NC(=O)[C@H](CCCNC(=N)N)NC(=O)[C@H](CCCNC(=N)N)NC(=O)[C@H](C)NC(=O)[C@H](Cc1ccccc1)NC(=O)[C@H](CC(=O)O)NC(=O)[C@@H](NC(=O)[C@H](CCCCN)NC(=O)[C@H](CC(=O)O)NC(=O)[C@H](CCCNC(=N)N)NC(=O)[C@H](CCCNC(=N)N)NC(=O)[C@H](C)NC(=O)[C@@H](N)CCSC)[C@@H](C)O)NC(=O)CCCCCNC(=O)[C@H](CCCNC(=N)N)NC(=O)[C@H](CCCNC(=N)N)NC(=O)[C@H](CCCNC(=N)N)NC(=O)[C@H](CCCNC(=N)N)NC(=O)[C@H](C)NC(=O)[C@H](Cc1ccccc1)NC(=O)[C@H](CC(=O)O)NC(=O)[C@@H](NC(=O)[C@H](CCCCN)NC(=O)[C@H](CC(=O)O)NC(=O)[C@H](CCCNC(=N)N)NC(=O)[C@H](CCCNC(=N)N)NC(=O)[C@H](C)NC(=O)[C@@H](N)CCSC)[C@@H](C)O)C(N)=O)[C@@H](C)O (stereo partly shown),,,"C57BL/6 mouse female, heart","dose not given, 6 h",relative to: total,mean tissue distribution,0.88%
